# Results gathered from unrelated publications.
# Each line is one published result; not all experiments were run side by side. Numbers after ± are the reported error.
Structure (SMILES),cell line,test,system,conditions,how to read,endpoint,value
CC(C)c1ccc(N(C)c2ccc3c(c2)OCC[C@H]3CNc2cnccc2C(=O)O)cc1,Hs 739.T,"cell growth, CellTiter-Glo",,7 days,,IC50,≥ 10 µM
Cc1cc(Cl)cc(-c2ccnc3cc(CN4C(=O)C5C(C4=O)C5(C)C)sc23)c1C[C@@H]1CNCCO1 (stereo partly drawn),CHP-212 resistant,annexin V/PI flow cytometry,,"0.1 µM, 48 h",,apoptotic cells,11.7%
CCc1nnc(NC(=O)c2cccc(C(=O)Nc3nnc(CC)s3)n2)s1,LDR,"silenced CMV-GFP reporter derepression, qHTS",,,,Emax,136%
CNS(=O)(=O)Nc1nccc(Cc2c(C)c3ccc(Oc4ncccc4F)cc3oc2=O)c1F,NB-4,cell viability,,7 days,,IC50,0.0022 µM
CCN(C(=O)c1cc(F)ccc1Oc1nncnc1N1CCC2(C1)CN([C@H](CCCN(C)CCOC)C(C)C)C2)C(C)C,SNB-75,,brain,168 h,,GI50,> 10 µM
O=C(CSc1cccc[n+]1[O-])c1ccccc1Br,LDR,"silenced CMV-GFP reporter derepression, qHTS",,,,EC50,3.16 µM
Cc1cc(NC2CCN(C)CC2)ccc1-c1cc2c(N3CCC[C@H](C(=O)NCc4ccc(OC(F)(F)F)cc4)C3)ncnc2[nH]1,NCI-H2228,"cell growth or viability, MTT",,"0.00032 µg/mL, 72 h",,inhibition,74%
O=C(C[Se]C(=O)c1ccc2ccccc2c1)Nc1cccc(C(F)(F)F)c1,NCI60 renal subpanel,"total growth inhibition, inhibitor",,five-dose,,mean TGI,3.57 µM
CN1CCCNC(=O)c2cccc(c2)C(=O)NCCCN(C)CCCNc2cccc3c2C(=O)c2cccc(c2C3=O)NCCC1,SAS,"RNA-seq, measured: MT-ND5 mRNA",,"1 µM, 6 h",reference: untreated cells,log2 fold change,-2.54
O=C(NCc1ccc(OC(F)(F)F)cc1)[C@H]1CCCN(c2ncnc3[nH]c(-c4ccc(C(F)(F)F)cc4)cc23)C1,NCI-H2228,"cell growth or viability, MTT",,"0.2 µg/mL, 72 h",,inhibition,17.4%
CO[C@@H]1[C@@H](OC(N)=O)[C@@H](O)[C@H](Oc2ccc3c(O)c(NC(=O)c4ccc(O)c(CC=C(C)C)c4)c(=O)oc3c2C)OC1(C)C,HCT-116 BRCA2 wild-type,,,"250 µM, replicate B",reference: untreated,colony survival,4.77%
Cc1sc2c(c1C)C(c1ccc(Cl)cc1)=N[C@@H](CC(=O)NCC(=O)N1CCC3(CCC(C(=O)N4CCN(C(=O)c5cc(Cc6n[nH]c(=O)c7ccccc67)ccc5F)CC4)CC3)CC1)c1nnc(C)n1-2,NCI-H82,,,"10 nM, 24 h",,cells in S phase,48%
Cc1c(Cl)cccc1Nc1ccccc1C(=O)[Se]CC(=O)Nc1cccc(C(F)(F)F)c1,NCI60 renal subpanel,cell growth,,"10 µM, 48 h, one-dose",,mean growth percent,-82.3%
Cc1ncsc1-c1ccc(C(C)NC(=O)C2CC(O)CN2C(=O)C(NC(=O)CCCCCCCCCCN2CCCC(Nc3ncc(Cl)c(Nc4ccccc4S(=O)(=O)C(C)C)n3)C2)C(C)(C)C)cc1 (stereo not drawn),22Rv1,"RNA-seq, measured: STARD13 mRNA",,concentration not given,reference: DMSO,log2 fold change,-2.93
CCN(CC)CC(=O)Nc1cccc(-n2cc(-c3ccc4ccc(-c5cn(-c6cccc(NC(=O)CN(CC)CC)c6)nn5)cc4c3)nn2)c1,RCC4,"PCR array, measured: VEGFC",,"5 x IC50, 4 h, normoxia",reference: untreated,fold regulation,-1.13 fold
CCC(=CCc1c(O)cc2c(c1O)C(=O)CC(c1ccc(O)cc1)O2)CC (stereo not drawn),HeLa,annexin V/PI,,"12 µM, 48 h",,early apoptotic cells,0.22 ± 0.02%
Cc1cc(NC2CCN(C)CC2)ccc1-c1cc2c(N3CCC[C@H](C(=O)NCc4ccc(Cl)nc4)C3)ncnc2[nH]1,NCI-H2228,"cell growth or viability, MTT",,"0.008 µg/mL, 72 h",,inhibition,6.86%
COC(=O)c1cc(NC2=NC(=O)C(=Cc3ccc(C)cc3)S2)ccc1OC(C)=O,MCF7,"GC-MS, measured: Myristic acid",,1 µM,reference: DMSO,metabolite level,-0.59 fold change

# Some of these lines once more:
Structure (SMILES),cell line,test,system,conditions,how to read,endpoint,value
Cc1cc(NC2CCN(C)CC2)ccc1-c1cc2c(N3CCC[C@H](C(=O)NCc4ccc(OC(F)(F)F)cc4)C3)ncnc2[nH]1,NCI-H2228,"cell growth or viability, MTT",,"0.00032 µg/mL, 72 h",,inhibition,74%
CN1CCCNC(=O)c2cccc(c2)C(=O)NCCCN(C)CCCNc2cccc3c2C(=O)c2cccc(c2C3=O)NCCC1,SAS,"RNA-seq, measured: MT-ND5 mRNA",,"1 µM, 6 h",reference: untreated cells,log2 fold change,-2.54
